Results from different studies.
A part holds a random share of what one study measured.

Set 1
Target: Histone acetyltransferase KAT6A, winged helix 1, GST fusion (KAT6A, Homo sapiens, UniProt Q92794, residues 1-85)
Method: protein binding microarray
Molecule type: double-stranded DNA, one strand shown
Matrix: in vitro
Tested at: not given
Setting: 8-mer, flanks averaged, mean of 2 arrays, mostly near background
Relative to: not given
Direction: higher = stronger binding
Target sequence (chain): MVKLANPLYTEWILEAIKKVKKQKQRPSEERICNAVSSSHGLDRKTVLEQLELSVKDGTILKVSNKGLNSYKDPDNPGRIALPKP
Sequence	E-score
ACCTACTG	-0.22
AGCCGTAG	0.292
AGCTATGG	-0.127
ACTGCTGG	-0.12
AATAGGTC	0.034
ATGTTACG	0.0561
AATTACAG	0.0336
AATACCCC	0.0889
CGACCCAA	-0.19
GCCAATGA	-0.264
AAGCTCCG	0.177
ACGTCGTC	0.102
GGCCTCCC	0.02
GCTACGGA	0.234
CCTGGAAG	-0.233

Set 2
Target: Prothrombin, mature alpha-thrombin (F2, Homo sapiens, UniProt P00734)
Method: aptamer microarray, sandwich
Molecule type: DNA with 2'F-ANA
Matrix: in vitro
Tested at: 200 nM
Setting: whole 15-mer aptamer, many near background
Added: Cy3 exosite-II aptamer, 400 nM
Direction: higher = stronger binding
Sequence: GGTTGGTGTGGTTGG
Modification	mean fluorescence intensity [a.u.]
2'F-ANA at 5 6 11 12 15	110
2'F-ANA at 1 2 4 6 11 13	78.9
2'F-ANA at 1 2 3 4 5 6 7 8 9 11 15	78.6
2'F-ANA at 2 4 7 9 10 13 14	69.4
2'F-ANA at 3 4 5 6 7 10 13	72.7
2'F-ANA at 1 3 4 8 9 10 11 13 15	56.3
2'F-ANA at 1 4 5 11 13 15	49.8
2'F-ANA at 5 6 7 9 10 12 14	50.5
2'F-ANA at 4 5 7 9 10 12 13 14 15	55.3
2'F-ANA at 1 2 3 4 5 6 9 14 15	47.7
2'F-ANA at 1 3 15	374
2'F-ANA at 1 3 11 14 15	82.9
2'F-ANA at 2 3 4 5 8 12 14	59
2'F-ANA at 1 4 5 7 8 10 11 13 14	46.7
2'F-ANA at 1 5 8 9 11 12 13 14 15	66

Set 3
Target: RING finger protein unkempt homolog, zinc fingers 1-6, SBP tag (UNK, Homo sapiens, UniProt Q9C0B0, residues 30-357)
UniProt Q9C0B0, sequence (30-357, looked up): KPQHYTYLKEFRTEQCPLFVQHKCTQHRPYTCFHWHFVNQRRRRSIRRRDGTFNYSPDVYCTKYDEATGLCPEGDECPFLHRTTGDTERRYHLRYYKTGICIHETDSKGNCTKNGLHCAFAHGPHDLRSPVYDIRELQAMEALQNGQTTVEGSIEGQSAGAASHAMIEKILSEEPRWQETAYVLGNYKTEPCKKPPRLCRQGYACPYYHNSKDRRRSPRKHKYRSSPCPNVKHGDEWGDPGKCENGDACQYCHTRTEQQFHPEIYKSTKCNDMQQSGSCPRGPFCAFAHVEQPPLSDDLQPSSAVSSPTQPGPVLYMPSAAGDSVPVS
Method: RNA Bind-n-Seq
Molecule type: RNA
Matrix: in vitro
Tested at: 100 nM
Setting: RNA with constant flanks, vertebrate orthologous sites, ends assumed
Relative to: input RNA pool
Direction: higher = stronger binding
Constant ends, left off below: GGGAGUUCUACAGUCCGACGAUC … CAACAGAGGAUUGAGCAUCA
Sequence	bound/input enrichment
AAUAUAAGGACUCUUGCAGCCUUAGAUGUUAUAAAAAUAUAUCUGAAUUGUAAGAGUUGCUUAGCAGUUUUUUUUUUUAAGCACUUGUUUUGGGUACAAGGCAUUUCUGAUAUAGUUUUA	0.777 ratio
ACUGGCCGCGGGGCGAGCUCCAGAGAGCUGCUGGCUGCUCGUCGGGUUAUGACCUUGACGUGAUAGGUAGGUUCGCGUGUUUUUUAAUUUAAAGAUGUUAAGACUUAAUUCACUAAAAUU	0.327 ratio
CUUAUUUCCAGGUUGGCUCUAGUGGAAAAGUCAUAGGAAUUGACCACAUUAAAGAGCUAGUAGAUGACUCAAUAAAUAAUGUCAAAAAGGACGAUCCAGUGCUUUUGUCUUCAGGGAGAG	0.731 ratio
GUUAGGUCAUGACCCUUAUAGGCUAGGUCAUGAUGCCUACAGGUUAGGGCAGGACCCUUAUAGAUUAGGCCAUGAUCCCUACAGACUAACUCCUGAUCCCUAUAGGAUGUCACCUAGACC	0.568 ratio
AAGAACAGGAGCAGCAUAAACUGAGCUUUGGGGAAAUAAGCUUUGCUUUUUAUAUUUAAAUAGGAUACUUUUAUAUGAUGGGUGCUUUGAGUGUGAAUGCAGCAGGCUCUCCAUUUCGGA	1.55 ratio
GGGCGGCCCGUGGGGGAAUUCCCUGCCUUGGCCUUACCUCCCCUUCCUGCCACUUGCCCCUAGUUAUUUUUUUUUUUUUUUUUACCACCAUGUGAUUAAGGUCGGCGCUGCCUCCCCCGA	10.7 ratio

Set 4
Target: Centromere-binding protein 1, full length, His-tagged (CBF1, Saccharomyces cerevisiae, UniProt P17106, residues 1-351)
UniProt P17106, sequence (whole entry, looked up): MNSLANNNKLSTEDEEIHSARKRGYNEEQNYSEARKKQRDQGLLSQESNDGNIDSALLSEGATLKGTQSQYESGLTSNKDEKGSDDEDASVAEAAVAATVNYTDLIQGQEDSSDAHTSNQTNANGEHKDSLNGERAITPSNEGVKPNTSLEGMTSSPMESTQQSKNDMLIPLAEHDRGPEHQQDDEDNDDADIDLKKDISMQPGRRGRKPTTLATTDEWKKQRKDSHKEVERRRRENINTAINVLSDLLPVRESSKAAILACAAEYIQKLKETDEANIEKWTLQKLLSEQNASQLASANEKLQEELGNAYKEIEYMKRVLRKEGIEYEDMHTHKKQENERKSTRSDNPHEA
Method: competition protein-binding microarray
Molecule type: double-stranded DNA, one strand shown
Matrix: in vitro
Tested at: 2 µM
Setting: whole 60-bp probe, lowest competitor level
Added: Pho4 competitor, 0.05 µM
Direction: higher = stronger binding
Constant ends, left off below: … GTCTTGATTCGCTTGACGCTGCTG
Sequence	fluorescence intensity [a.u.]
CGTCCTAGCGATTGACTTGTGGGTGCCATGAGGAAG	69.6
GCCTTAAGATTCTGTCATGCGGGTGTCGATAGCGTC	86.5
GGGTTTCCTTCTGGTATGATAAATGTGAGCCAAATG	76
AAAGCGGTAATTTTTCACGTGATCTCACATATCTAT	5720
TTAGCGTCAAGTACAAATGTGACGAAAATTTGAGGT	110
GTCTTGTCTCATTGCCGCGTGGGTGTCCCCACTTCA	96.6
CGGGGTTAAGTTTGAACAGTGGGTGGCTTGCAGCAG	75.7
CGCTGTTACTTCTCGCGCGTGATGGGGTCAGCGAAG	140
AAACATAGGACGGAACACGTGTGAAAGACAAATCTT	1340
TAAATGGTTCAAATTCACGTGGGTAATAATATGATT	1280
CATACCCAACCTTGAAATGTGGGTGAAGATATTTGT	69.2
CTAACGAAGGTTTGCGAAGTGGGTGACAAGCCAAGT	65.3
CATCGGCCCATTTGGCACACGCCAGTTAGTGAGGTT	62.8
CTAACGAAGGTTTGTGAGGTGGGTGACAAGCCAAGT	68
CGGGGTTAAGTTTGAGTAGTGGGTGGCTTGCAGCAG	71.2
GGCCACCTTGATCTGCATGTTTCTTCTAGGTGAGCT	62
CTAACGAAGGTTTTTCACGTGTCCTACAAGCCAAGT	956
CGTCCTAGTGATTGTCACACCACTTCCATGAGGAAG	130
AAATTACTAAGTTGTCACCGTACTTACCCCGTATGA	79.4
